Published values from different studies.
Numbered parts are unrelated; each lists some results of a single study.

Set 1 — technique: universal PBM; molecule type: double-stranded DNA, one strand shown; matrix: in vitro; tested at: not given; direction: higher = stronger binding
Target: Sal-like protein 4, full length isoform B (SALL4, Homo sapiens, UniProt Q9UJQ4-2, residues 1-616)
Notes: 8-mer, flanks averaged, mean of replicates
Sequence | E-score
CCGCCTCC | -0.193
GTCAGCAC | -0.14
CATGCTGC | -0.218
ACGGGGCT | -0.256
GTGCCATA | 0.126
ATACTAGA | 0.248
GCTCGCAC | -0.255
GGCTCCTA | -0.21
GCATGTTA | 0.137
ATTCCGAC | -0.0882
CATCTACG | 0.164
CTAGCGAC | -0.0675
ATGTCATC | -0.0215
AGATCAAC | 0.0319
CAAGCATG | 0.0711
GCCGAGCC | -0.216
CACCGAAG | -0.16
AGATCGAC | -0.121
TGTTATAA | 0.374
AATTCGAG | 0.0907
CCTTCTTC | -0.0824
CGTAGCCC | -0.307

Set 2 — technique: RNA Bind-n-Seq; molecule type: RNA; matrix: in vitro; tested at: 200 nM; notes: whole 134-nt RNA, ends assumed; added: 150 mM KCl; relative to: input library; direction: higher = stronger binding
Target: Fragile X messenger ribonucleoprotein 1, C-terminal low-complexity region (Fmr1, Mus musculus, UniProt P35922)
All sequences stand within: GGGAGUUCUACAGUCCGACGAUC … UGGAAUUCUCGGGUGUCAAGG
Sequence | log2 enrichment
ACCAUGCAGGUGGGCAUCUUUGGGAAGUGGGGCACGGGGGGGAUAGGGAGGGGGGUAACACUUUGGGAACAGGUGGUCCCAGGUCGUUUC | 0.747
CAAGUCCUGUGCUACACAUCGUAUGUACCGAAUCGGAAAAAGGAAAAAGGAAAGGAAAGUAUUAUGUUACGCCGUUCGGAUCUGCACUUC | -0.89
UUAAUAGAUUGAACUUCAAAAAAAAAUUCUUUCUUAAUUUCUGGAUUAAAAAGUAUGCCUGUGUCUUCUAGACCUUUACCAGAAGAUGAU | -1.23
AAGUCCUGUGCUACACAUCGUAUGUACCGAAUCGGGAAAAGGAAAAGGGGAAAAGGAAAGUAUUAUGUUACGCCGUUCGGAUCUGCACUU | -0.44
CAAGUCCUGUGCUACACAUCGUAUGUACCGAAUCGGAAAAAGGAAAGGAAAAAGGAAAGUAUUAUGUUACGCCGUUCGGAUCUGCACUUC | -0.699
GCAGGAAGUAAAAACAAAAAAAAAUGCUUCGGAUAGUGGCAGGGGUGGGGGUUGCUAAGGAAAGGGUGGGAUGGGAGUGGGUAAAGAGUU | 0.346
UCCUCAAGUCCUGUGCUACACAUCGUAUGUACCGAAUCGGCGGGGCGGCGGAAAGUAUUAUGUUACGCCGUUCGGAUCUGCACUUCCAGC | -0.163
CUCAAGUCCUGUGCUACACAUCGUAUGUACCGAAUCGGGGUUGGGGUUGGUUGGAAAGUAUUAUGUUACGCCGUUCGGAUCUGCACUUCC | 0.454
GUCCUGUGCUACACAUCGUAUGUACCGAAUCAAAUUUUUAAACCCAAAUUUUUUUAAAAAAGUAUUAUGUUACGCCGUUCGGAUCUGCAC | -0.119
GUCCUGUGCUACACAUCGUAUGUACCGAAUCGGAAAAAAAGGAAAAAGGUUUUUUUGGAAAGUAUUAUGUUACGCCGUUCGGAUCUGCAC | -1.17
CACAGACAACACGCACCCACACAGACACAGAGGGAAGGGGUUGGGAUGGGGACAGGGUGCACAGCAGGGCGAAAUAGGACCCCAGCCCCU | 1.07
UAACUUUAGAGGAGGAUCUGAUGGAUAUGGCAGUGGACGUGGAUUUGGGGAUGGAUAUAAUGGGUAUGGAGGAGGACCUGGAGGUGGCAA | 0.318
GUCCUGUGCUACACAUCGUAUGUACCGAAUCGGGGAAAAAGGAAAAAGGGAAAAAGGGAAAGUAUUAUGUUACGCCGUUCGGAUCUGCAC | -0.435
CACAGAAAACACGCACCCACACAGACACAGAGGGAAGGGGUUGGGAUGGGGACAGGGUGCACAGCAGGGCGGGGUAGGACCCCAGCCCCU | 1.21

Set 3 — technique: RNA Bind-n-Seq; molecule type: RNA; matrix: in vitro; tested at: 365 nM; relative to: no-protein control; direction: higher = stronger binding
Target: RNA binding protein fox-1 homolog 2, RRM domain, GST-SBP tag (RBFOX2, Homo sapiens, UniProt O43251-10, residues 100-194)
Notes: natural RNA segment, single round, ends assumed
All sequences stand within: GGGAGUUCUACAGUCCGACGAUC … UGGAAUUCUCGGGUGCCAA
Target sequence (chain): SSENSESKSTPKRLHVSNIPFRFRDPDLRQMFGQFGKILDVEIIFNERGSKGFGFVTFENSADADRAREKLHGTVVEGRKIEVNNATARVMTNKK
Sequence | RBNS enrichment (R)
UUUCCAGGGCUUGUUGGUACAAAUCAAAGCCAAGACCAAUUAAAAGAAAUGUAUUUUUAUCUUCGGAUUGGUCUUUGAUGUUGCCUCUGUGUGUAUAAAAAUAGACCUCU | 0.336
UCCCGUCCCUGUAGCUGCUCUGUUUAGACAGCGGACAGACGCUCACGCCCAGGGGAUGUCCUCACGCUGUCGCCGCGCGGUUUCCCUUCGCAGAUGUGUAUACUCAUGAU | 0.286
UCGCACCAUUGCACUUUAGAAAUAACACGGAGUGUUCCCAAGGGCCUCAGGUGGACUGCCACCCUGCCUUUAUCUCUGUAGGAUAAGAGGAGGAUGACUGGCCUCUGGCC | 0.506
CCAUCUUGGGUUCUGGUCAGUGCUGCAGGCUCCUGGGCUCCCCUCUGCCCAGUGAGCAACUUAUACCCUGCACUGGAUAGUGGCAAGUACCCAGCCUGGGACUUCCCUGG | 0.186
UUCUAUUAUGACAUGUACCUCGAAGAAGGGGGUGUGUCUAGCAAUGAUUUCUCUUCUCUGGAGGCUUUGUGUAAGAAAAUCAUUAAAGAAAAACAAGCUUUUGAAAGACU | 0.601
CUCAGGUUCUUUCCAUGCAGACUCCUCAGAUCUGAACACAGUUUAGUGCUUUACAUGCUGUGCUCUUUGAAGAGAUUUCAACAAGAAUAUUGUAUGUUAAAGCAUCAGAG | 0.244
AUUGAAAUUGUGUUGAAUUGUAUGCUUUUUCACUUUUGAUAAAUAAACAUGUAAAAAUGUUUCAAAAAAAUAAUAAAAUAAAUAAAUACGAAGAAUAUGUCAGGACAGUC | 1.19
CCUGCCAGGGGUCCUCACCCCUGUCCACCCUGUGCCUGGCUGUCCCUGCACCCAGAUACAGCAACAUGGCCUGUACCCAGCAGAGUGGUGGCACCACCAUGGUUACAGCG | 0.316
CCUAAUGUAUUAGUUUCCUUAUACGAGUUAUGCUUUUAGUACUGUAUCUCUCUCUGCUUAACUAAAGGUCACAAAGAUUUUCUCCUAUGUUUUGUUCUGGAAGUUUUAUA | 0.782
AUUUAACAAAUGGACUCUCUUAAUUCUACUGGACCCAGGCCUUGAACUUUCUGGUUUCUGUCUCUGUGCUCUGACUUUUUGAUUUCAGGUCUAGCCCUGUGCACUUACCU | 0.506
AGCGCCAUGAACAUCAAGCUAGGGCCCGCCCUGAAGAUCUACGCACGCAUCAGCAUGCUCAAGGACUCCUAGAGUCUCUGCUGCCUGCCCACUGCACCACCAGGCAGCCA | 3.43
GUAUAAGGUCCAGGCUGGUCCUUACUCUUCCUGGGACCAAAAGCACCCAGAGGCAUUAACAGGUCCCCAGACUAGGGCCUACACUGAGGGUAGAACCUGGAACCACAGUU | 0.251

Set 4 — technique: protein-binding microarray; molecule type: double-stranded DNA, one strand shown; matrix: in vitro; tested at: 2200 nM top; notes: 60-bp whole probe; added: salmon DNA 0.4 mg/ml; relative to: random background probes; direction: higher = stronger binding; all sequences stand within: GCCTAGCAC … GTCTTGATTCGCTTGACGCTGCTG
Target: Interferon regulatory factor 7, full length, phosphomimetic (IRF7, Homo sapiens, UniProt Q92985, residues 1-503, S471D/S472D/S475D/S476D/S477D/S483D/S484D/S487D)
Construct (chain): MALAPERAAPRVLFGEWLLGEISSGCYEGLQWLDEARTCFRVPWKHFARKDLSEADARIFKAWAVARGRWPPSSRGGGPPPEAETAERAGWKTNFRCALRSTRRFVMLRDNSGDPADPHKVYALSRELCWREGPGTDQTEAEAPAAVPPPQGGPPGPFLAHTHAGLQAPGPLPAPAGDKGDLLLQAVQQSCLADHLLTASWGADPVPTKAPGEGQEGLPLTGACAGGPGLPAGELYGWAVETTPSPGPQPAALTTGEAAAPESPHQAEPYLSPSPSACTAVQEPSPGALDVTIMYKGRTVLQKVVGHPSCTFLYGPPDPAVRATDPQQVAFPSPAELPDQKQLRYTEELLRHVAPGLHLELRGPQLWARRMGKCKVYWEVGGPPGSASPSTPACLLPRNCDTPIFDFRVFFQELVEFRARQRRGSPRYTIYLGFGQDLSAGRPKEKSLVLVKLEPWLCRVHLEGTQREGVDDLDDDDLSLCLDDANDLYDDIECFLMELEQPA
Sequence | fitted relative affinity [z-score]
TCTTTTATTTTTTTTATTTAGTGCTAG | 1.76
ATCCATTTTGGTTTTCATTAGTGCTAG | 3.24
ACTAGATAAGACAAAGTGATGTGCTAG | -0.882
GACAAACTGAGTTTCGAGACGTGCTAG | 2.17
GACGGTATTCTACTGCTGACGTGCTAG | 0.625
GACGATTGCAGTTCCGAGACGTGCTAG | 0.539
GTCATTTACATTTTAGTAGTGTGCTAG | 1.53
GACGAACTGGGGACTGGCGACGTGCTA | -0.342
TTAGGAATCGGTCTCGGTTAGTGCTAG | 0.364
TCATTTTTTTTTTTTGTACTGTGCTAG | 2.34
TTAGGTTTCCTTTTCCCTTAGTGCTAG | 5.45
GACGGACCGGACTTTCGGGACGTGCTA | 1.83
GACGATATCAGTATTGAGACGTGCTAG | 0.0516
TTAGGTTTCGACTTTTGGTTAGTGCTA | 5.08
TTGGATATCAGTCTCGATTAGTGCTAG | 0.596
AGCTGTTTGAGAAATCAGATGGTGCTA | -0.291
TCTACAATGGCTTTGCCTTTGTGCTAG | -0.0162
TTAAATATCAGTATCGATTAGTGCTAG | 0.0271
TTAGCTTCCCTTTTCCTTTAGTGCTAG | 2.99
GACGGTTTCGGGTATTGGGACGTGCTA | 5.44
TCAAGGCTGGTCTCTAACACTGTGCTA | -0.826
TTAGGTTCCCGTTTCGGTTAGTGCTAG | 5.38
GACGCACTGGACTATCGGGACGTGCTA | -0.392
TTAGAACTGGGGACCGGATTAGTGCTA | -0.723
TCATTTTTTTCCCTGAAACTGTGCTAG | 1.4
